Results from different studies.
Every numbered part comes from another study and shows a few of its results, in no order. “And” joins repeats or separate records; there may be more than shown.
Chain of UniProt P10721 (whole entry, unmodified, looked up): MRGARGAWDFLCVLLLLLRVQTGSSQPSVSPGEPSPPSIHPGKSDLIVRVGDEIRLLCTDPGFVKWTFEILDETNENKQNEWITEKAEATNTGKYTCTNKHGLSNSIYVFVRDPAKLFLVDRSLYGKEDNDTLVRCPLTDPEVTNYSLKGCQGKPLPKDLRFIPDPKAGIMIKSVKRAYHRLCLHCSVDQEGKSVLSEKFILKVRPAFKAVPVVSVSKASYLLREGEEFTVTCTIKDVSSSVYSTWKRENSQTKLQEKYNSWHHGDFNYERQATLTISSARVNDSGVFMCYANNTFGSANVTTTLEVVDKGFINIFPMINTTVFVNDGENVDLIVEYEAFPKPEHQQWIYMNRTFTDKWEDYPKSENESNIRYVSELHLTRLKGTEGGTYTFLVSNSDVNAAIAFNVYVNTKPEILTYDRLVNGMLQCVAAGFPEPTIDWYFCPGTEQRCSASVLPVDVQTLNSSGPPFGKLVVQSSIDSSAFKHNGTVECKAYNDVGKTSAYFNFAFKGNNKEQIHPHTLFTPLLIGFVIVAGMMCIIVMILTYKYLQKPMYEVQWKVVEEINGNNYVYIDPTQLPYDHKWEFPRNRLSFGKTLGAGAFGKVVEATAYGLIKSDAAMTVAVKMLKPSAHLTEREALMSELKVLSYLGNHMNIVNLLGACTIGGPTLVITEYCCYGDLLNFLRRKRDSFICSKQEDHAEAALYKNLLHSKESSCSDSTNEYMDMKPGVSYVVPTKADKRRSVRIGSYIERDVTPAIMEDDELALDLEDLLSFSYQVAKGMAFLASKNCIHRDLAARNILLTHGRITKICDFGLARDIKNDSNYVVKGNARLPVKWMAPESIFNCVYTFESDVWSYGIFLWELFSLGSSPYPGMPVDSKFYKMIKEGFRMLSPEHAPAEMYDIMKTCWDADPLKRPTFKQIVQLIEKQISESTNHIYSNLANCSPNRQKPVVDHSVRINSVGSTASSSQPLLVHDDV
Chain of UniProt Q99558 (whole entry, looked up): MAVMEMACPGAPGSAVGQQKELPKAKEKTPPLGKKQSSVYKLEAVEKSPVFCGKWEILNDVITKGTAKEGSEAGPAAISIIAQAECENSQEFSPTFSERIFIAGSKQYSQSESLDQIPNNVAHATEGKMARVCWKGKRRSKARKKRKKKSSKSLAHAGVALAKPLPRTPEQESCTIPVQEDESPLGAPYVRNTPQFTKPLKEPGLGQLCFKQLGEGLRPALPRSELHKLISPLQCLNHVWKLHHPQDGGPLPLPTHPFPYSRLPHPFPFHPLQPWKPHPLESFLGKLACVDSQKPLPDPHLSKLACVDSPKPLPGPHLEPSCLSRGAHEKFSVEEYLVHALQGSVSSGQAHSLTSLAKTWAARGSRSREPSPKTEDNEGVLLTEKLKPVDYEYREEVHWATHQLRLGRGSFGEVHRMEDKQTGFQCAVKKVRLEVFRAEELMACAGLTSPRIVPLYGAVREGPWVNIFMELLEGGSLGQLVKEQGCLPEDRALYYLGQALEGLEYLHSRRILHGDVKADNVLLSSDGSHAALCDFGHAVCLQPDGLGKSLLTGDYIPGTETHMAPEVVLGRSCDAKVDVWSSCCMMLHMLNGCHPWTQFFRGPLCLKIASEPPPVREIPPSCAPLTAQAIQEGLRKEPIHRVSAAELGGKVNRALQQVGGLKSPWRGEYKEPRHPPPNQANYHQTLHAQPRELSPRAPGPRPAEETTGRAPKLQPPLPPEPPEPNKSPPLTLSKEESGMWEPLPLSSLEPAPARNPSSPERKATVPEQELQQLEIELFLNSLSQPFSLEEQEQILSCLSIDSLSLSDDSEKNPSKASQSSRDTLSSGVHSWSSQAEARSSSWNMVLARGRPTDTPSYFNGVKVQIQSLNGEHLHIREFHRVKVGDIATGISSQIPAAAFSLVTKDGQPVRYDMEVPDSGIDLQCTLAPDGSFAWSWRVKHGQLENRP
Chain of UniProt P36507 (whole entry, looked up): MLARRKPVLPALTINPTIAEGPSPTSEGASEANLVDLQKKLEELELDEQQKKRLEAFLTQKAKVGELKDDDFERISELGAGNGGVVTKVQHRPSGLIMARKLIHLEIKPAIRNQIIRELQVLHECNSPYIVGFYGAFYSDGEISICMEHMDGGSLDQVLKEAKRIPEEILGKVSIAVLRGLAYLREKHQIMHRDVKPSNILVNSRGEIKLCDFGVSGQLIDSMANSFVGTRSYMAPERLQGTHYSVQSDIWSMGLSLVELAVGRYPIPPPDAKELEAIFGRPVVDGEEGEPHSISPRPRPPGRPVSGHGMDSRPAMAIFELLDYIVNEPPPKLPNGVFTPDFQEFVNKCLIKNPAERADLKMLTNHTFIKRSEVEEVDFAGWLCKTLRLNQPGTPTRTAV
Chain of UniProt Q9H2X6 (whole entry, looked up): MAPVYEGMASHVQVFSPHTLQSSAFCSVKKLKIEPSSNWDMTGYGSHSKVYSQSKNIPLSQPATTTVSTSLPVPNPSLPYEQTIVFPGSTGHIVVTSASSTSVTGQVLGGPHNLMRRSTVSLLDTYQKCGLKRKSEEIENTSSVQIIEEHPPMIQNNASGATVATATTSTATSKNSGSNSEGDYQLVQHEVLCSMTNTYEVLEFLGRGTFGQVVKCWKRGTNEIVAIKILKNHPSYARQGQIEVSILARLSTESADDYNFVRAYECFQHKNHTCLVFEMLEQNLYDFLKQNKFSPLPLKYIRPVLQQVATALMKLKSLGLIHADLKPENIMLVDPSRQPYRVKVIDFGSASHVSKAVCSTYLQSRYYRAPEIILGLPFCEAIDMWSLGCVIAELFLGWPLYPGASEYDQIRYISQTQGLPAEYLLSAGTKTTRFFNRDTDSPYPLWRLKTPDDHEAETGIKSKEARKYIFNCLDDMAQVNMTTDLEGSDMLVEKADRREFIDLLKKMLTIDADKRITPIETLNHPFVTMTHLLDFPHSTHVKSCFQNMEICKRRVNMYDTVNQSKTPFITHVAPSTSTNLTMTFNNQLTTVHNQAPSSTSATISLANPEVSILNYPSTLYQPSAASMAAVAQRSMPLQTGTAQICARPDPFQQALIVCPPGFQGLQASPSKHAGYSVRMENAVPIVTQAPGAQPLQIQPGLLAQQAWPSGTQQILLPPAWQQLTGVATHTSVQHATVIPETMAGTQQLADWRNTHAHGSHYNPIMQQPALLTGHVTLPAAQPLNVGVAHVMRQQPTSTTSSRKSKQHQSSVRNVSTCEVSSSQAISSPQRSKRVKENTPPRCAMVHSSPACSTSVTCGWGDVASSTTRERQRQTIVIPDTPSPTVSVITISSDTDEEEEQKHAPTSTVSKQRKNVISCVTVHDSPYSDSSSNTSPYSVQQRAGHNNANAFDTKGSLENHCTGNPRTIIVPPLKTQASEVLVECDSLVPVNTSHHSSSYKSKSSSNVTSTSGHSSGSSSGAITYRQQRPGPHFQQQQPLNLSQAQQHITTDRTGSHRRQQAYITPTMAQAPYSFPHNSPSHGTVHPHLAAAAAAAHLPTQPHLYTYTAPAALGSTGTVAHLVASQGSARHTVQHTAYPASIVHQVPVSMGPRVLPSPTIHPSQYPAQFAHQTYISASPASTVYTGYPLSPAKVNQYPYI
Chain of UniProt P48729 (whole entry, looked up): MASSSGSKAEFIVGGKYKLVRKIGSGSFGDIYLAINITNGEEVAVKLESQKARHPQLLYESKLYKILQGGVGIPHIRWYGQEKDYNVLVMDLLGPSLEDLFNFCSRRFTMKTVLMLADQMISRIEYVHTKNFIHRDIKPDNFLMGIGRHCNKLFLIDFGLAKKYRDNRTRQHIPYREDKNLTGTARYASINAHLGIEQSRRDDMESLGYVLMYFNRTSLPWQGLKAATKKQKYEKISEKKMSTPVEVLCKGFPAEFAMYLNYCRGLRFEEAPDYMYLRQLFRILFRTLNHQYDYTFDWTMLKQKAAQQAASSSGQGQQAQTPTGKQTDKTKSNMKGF

Block 1
Target: Calcium/calmodulin-dependent protein kinase type II subunit alpha (CAMK2A, Homo sapiens, UniProt Q9UQM7)
Chain of UniProt Q9UQM7 (whole entry, looked up): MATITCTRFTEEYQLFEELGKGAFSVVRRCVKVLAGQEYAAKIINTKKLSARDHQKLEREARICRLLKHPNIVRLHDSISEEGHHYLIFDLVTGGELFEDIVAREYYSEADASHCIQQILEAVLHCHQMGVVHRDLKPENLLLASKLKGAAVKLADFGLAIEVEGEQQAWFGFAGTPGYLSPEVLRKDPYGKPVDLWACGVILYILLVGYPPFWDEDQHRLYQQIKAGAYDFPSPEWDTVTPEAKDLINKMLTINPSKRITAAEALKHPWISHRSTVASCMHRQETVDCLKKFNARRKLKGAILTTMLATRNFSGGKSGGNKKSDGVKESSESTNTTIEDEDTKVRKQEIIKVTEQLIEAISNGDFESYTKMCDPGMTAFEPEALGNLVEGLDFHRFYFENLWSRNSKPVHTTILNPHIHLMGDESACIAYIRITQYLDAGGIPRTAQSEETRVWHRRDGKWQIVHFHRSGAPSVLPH
Observed: enzyme activity
Mode: inhibitor
Tested at: 10 µM
CCCNS(=O)(=O)Nc1ncnc(OCCOc2ncc(Br)cn2)c1-c1ccc(Br)cc1 has an inhibition of -18%.
With NC[C@@H]1O[C@H](O[C@H]2[C@@H](O)[C@H](O[C@@H]3[C@@H](O)[C@H](N)C[C@H](N)[C@H]3O[C@H]3O[C@H](CN)[C@@H](O)[C@H](O)[C@H]3N)O[C@@H]2CO)[C@H](N)[C@@H](O)[C@@H]1O the inhibition was -0.11% and 0.36%.
COc1cc2c[n+](C)c3c4cc5c(cc4ccc3c2cc1OC)OCO5 has an inhibition of -24%.
For O=C(O)c1cccnc1Nc1cccc(C(F)(F)F)c1, the inhibition was 1%.
With CC#CCC(C)[C@H](O)/C=C/[C@@H]1[C@H]2C/C(=C/CCCC(=O)O)C[C@H]2C[C@H]1O (stereo partly shown) the inhibition was 1%.
For CC(=O)OC/C1=C\[C@H]2[C@@H](OC(=O)/C=C/c3ccccc3)[C@@H](C)C[C@]2(OC(C)=O)C(=O)/C(C)=C/[C@@H]2[C@H](CC1)C2(C)C, the inhibition was 16%.
CC1=CC(=O)[C@H]2C[C@@H]1C2(C)C gave an inhibition of 1%.
CC(N)[C@]12C[C@H]3C[C@H](C[C@H](C3)C1)C2 (stereo partly shown) has an inhibition of -14%.
The inhibition of COc1ccc(C[C@H]2COC(=O)[C@@H]2Cc2ccc(O[C@@H]3O[C@H](CO)[C@@H](O)[C@H](O)[C@H]3O)c(OC)c2)cc1OC is reported as -114%.
O=C(O)CCCc1c[nH]c2ccccc12 gave an inhibition of -7%.
With O=c1[nH]cnc2c([C@@H]3N[C@H](CO)[C@@H](O)[C@H]3O)c[nH]c12 the inhibition was 2%.
For CC(C)C[C@H](O)C(=O)O, the inhibition was -11%.
O=C1OCCN1/N=C/c1ccc([N+](=O)[O-])o1 has an inhibition of -5%.

Block 2
Target: NUAK family SNF1-like kinase 1 (NUAK1, Homo sapiens, UniProt O60285)
Chain of UniProt O60285 (whole entry, looked up): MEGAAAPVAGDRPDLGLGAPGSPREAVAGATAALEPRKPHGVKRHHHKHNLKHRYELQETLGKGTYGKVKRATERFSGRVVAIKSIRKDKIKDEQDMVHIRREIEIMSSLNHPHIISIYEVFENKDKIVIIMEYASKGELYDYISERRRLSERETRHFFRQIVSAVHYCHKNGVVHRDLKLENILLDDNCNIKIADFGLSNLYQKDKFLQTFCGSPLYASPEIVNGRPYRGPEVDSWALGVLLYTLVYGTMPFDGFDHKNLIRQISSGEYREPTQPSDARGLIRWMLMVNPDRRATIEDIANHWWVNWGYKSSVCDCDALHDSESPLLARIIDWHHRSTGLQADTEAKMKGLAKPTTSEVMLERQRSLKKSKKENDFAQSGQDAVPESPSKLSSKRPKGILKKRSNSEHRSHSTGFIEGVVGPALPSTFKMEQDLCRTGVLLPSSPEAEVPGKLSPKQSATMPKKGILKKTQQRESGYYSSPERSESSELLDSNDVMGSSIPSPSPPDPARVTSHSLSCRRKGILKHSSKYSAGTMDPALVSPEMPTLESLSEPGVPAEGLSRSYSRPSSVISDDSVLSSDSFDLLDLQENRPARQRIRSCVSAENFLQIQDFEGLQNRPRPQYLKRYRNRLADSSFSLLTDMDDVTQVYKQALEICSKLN
Observed: enzyme activity
Mode: inhibitor
Tested at: 0.5 µM
Reference: control
c1cc(-c2cnn3cc(-c4ccc(OCCN5CCCCC5)cc4)cnc23)ccn1 has a remaining activity of 26.6%.
The remaining activity of O=C1NC(=O)/C(=C/c2ccc3c(c2)OC(F)(F)O3)S1 is reported as 91.8%.
The remaining activity of COc1cc2c(N3CCN(C(=O)Nc4ccc(OC(C)C)cc4)CC3)ncnc2cc1OCCCN1CCCCC1 is reported as 104%.
N#CC(c1ccnc(NCCc2cccnc2)n1)c1nc2ccccc2s1 (stereo not shown) has a remaining activity of 91.8%.
CC(C)N(CCC(=O)c1ccc2ccccc2c1)Cc1ccccc1 has a remaining activity of 97.1%.
With C[C@@H](N)[C@H]1CC[C@H](C(=O)Nc2ccncc2)CC1 the remaining activity was 91.6%.
With NC(=O)c1ccc(-c2nc(-c3ccc4c(c3)OCCO4)c(-c3ccccn3)[nH]2)cc1 the remaining activity was 93.4%.
With NC(=O)c1cccc(-c2cc(Nc3ccc(OC(F)(F)F)cc3)ncn2)c1 the remaining activity was 96.7%.
For O=C(c1ccccc1)c1ccc(N2CCOCC2)cc1O, the remaining activity was 94.9%.
The remaining activity of Nc1nc(Nc2ccc(S(N)(=O)=O)cc2)nn1C(=S)Nc1c(F)cccc1F is reported as 2.13%.
CNc1cc2c(Nc3cccc(Br)c3)ncnc2cn1 has a remaining activity of 97.5%.
The remaining activity of O=C(O)/C=C/c1cc(Br)c(Br)c(Br)c1Br is reported as 87.6%.
Clc1ccc(Nc2nnc(Cc3ccncc3)c3ccccc23)cc1 has a remaining activity of 112%.
For N#C/C(=C(/N)SC1C=CC=CC1)c1cccc(C(O)c2ccncc2)c1 (stereo not shown), the remaining activity was 107%.
With O=Nc1c(-c2c(O)[nH]c3ccccc23)[nH]c2ccccc12 the remaining activity was 8.89%.
CC(C)(C)c1nc2c3cc[nH]c(=O)c3c3cc(F)ccc3c2[nH]1 gave a remaining activity of 3.04%.
CC(C)n1cnc2c(Nc3cccc(Cl)c3)nc(NCCO)nc21 gave a remaining activity of 67.3%.
CCN(CC)CCCCN1c2ccccc2Oc2ccc(Cl)cc21 gave a remaining activity of 90.7%.
For FC(F)(F)c1ccc(/C=C/c2nc(COc3ccc(CCCCn4ccnn4)cc3)co2)cc1, the remaining activity was 103%.
The remaining activity of CCCCc1c(-c2ccc(O)cc2)[nH]c2nccnc12 is reported as 19.1%.

Block 3
Species: mouse
Medium: microsomes or S9
Tested at: 2 µM
Time: 0.5 h
With CC(NC(=O)c1cn(C)nc1-c1ccc2c(c1)OCCCO2)c1ccc(-n2cncn2)cc1 (stereo not shown) the remaining compound was 64.9%.
CCOc1cc(CNCCc2ccc(S(N)(=O)=O)cc2)ccc1OCc1ccccc1 has a remaining compound of 54.2%.
CNS(=O)(=O)c1ccc(CCC(=O)N(Cc2ccc(F)cc2F)C2CCCC2)cc1 has a remaining compound of 2.29%.
With O=C(N[C@@H]1CC[C@H]2Oc3ccccc3N[C@H]2[C@@H]1O)c1ccccn1 the remaining compound was 2.27%.
CC(C)(C)OC(=O)N1CCN(Cc2nc(-c3ccco3)n[nH]2)CC1 gave a remaining compound of 25.8%.
With CS(=O)(=O)N[C@@H]1[C@@H](NC(=O)C2=NNC(=O)CC2)[C@H]2CCO[C@H]21 the remaining compound was 98.5%.
COC(=O)c1sccc1NC(=O)Nc1c(C)nn(Cc2ccccc2C)c1C has a remaining compound of 1.34%.
CS(=O)(=O)N1CCC[C@H]1C(=O)N[C@H]1C[C@H](c2cc(=O)[nH]c(C3CC3)n2)C1 gave a remaining compound of greater than 99%.
COc1c(O)cc2c(c1O)C(=O)c1c(cc(C)c(O)c1OC)C2=O has a remaining compound of greater than 99%.
The remaining compound of Cc1ccc(S(=O)(=O)NC(=NCc2ccccc2)c2ccc(F)cc2)cc1 is reported as 1.65%.
CC(C)(C)OC(=O)NC1CCN(c2nnc(Cl)c3ccccc23)CC1 gave a remaining compound of 1.45%.
The remaining compound of CC(NCc1cnc2cnccn12)c1ccc2c(c1)OCO2 (stereo not shown) is reported as 31.6%.
For c1ccc(-c2nnc(CNCCN3CCOCC3)o2)cc1, the remaining compound was 88.8%.
With Cc1cc(C)c(NC(=O)CN(C)S(=O)(=O)c2ccc3[nH]c(=O)ccc3c2)c(C)c1 the remaining compound was greater than 100%.
The remaining compound of Cc1nn(-c2cccc(Cl)c2)c(Cl)c1CN1CCn2c(n[nH]c2=O)C1 is reported as 77.8%.

Block 4
Structure (SMILES): O=C(O)c1cc(-c2ccc(C3CCNCC3)cc2)c2ccc(-c3ccc(C(F)(F)F)cc3)cc2c1
Observed: cell-free assay
Method: competition with immobilised ligand
Tested at: 1 µM
It gave 100% for remaining binding (PIK3C2B (Homo sapiens, UniProt O00750)).
It gave 100% for remaining binding (MAP3K14 (Homo sapiens, UniProt Q99558)).
For CSNK1A1 (Homo sapiens, UniProt P48729): remaining binding read 83%.
The remaining binding was 100% (Ribosomal protein S6 kinase alpha-2, C-terminal kinase domain (RPS6KA2, Homo sapiens, UniProt Q15349)).
For EGFR (Homo sapiens, UniProt P00533, del752-759): remaining binding read 100%.
For Tyrosine-protein kinase ABL1, phosphorylated (ABL1, Homo sapiens, UniProt P00519, Q252H): remaining binding read 90%.
NEK10 (Homo sapiens, UniProt Q6ZWH5) — remaining binding: 100%.
The remaining binding was 100% (KIT (Homo sapiens, UniProt P10721, T670I/V559D)).
The remaining binding was 100% (MAP4K5 (Homo sapiens, UniProt Q9Y4K4)).
The remaining binding was 100% (PRKG1 (Homo sapiens, UniProt Q13976)).
Tyrosine-protein kinase ABL1, non-phosphorylated (ABL1, Homo sapiens, UniProt P00519) — remaining binding: 72%.
The remaining binding was 100% (KIT (Homo sapiens, UniProt P10721)).
MAP3K11 (Homo sapiens, UniProt Q16584) — remaining binding: 100%.
For CDKL5 (Homo sapiens, UniProt O76039): remaining binding read 100%.
CAMK2A (Homo sapiens, UniProt Q9UQM7) — remaining binding: 100%.
The remaining binding was 100% (EGFR (Homo sapiens, UniProt P00533, L861Q)).
For MAP2K7 (Homo sapiens, UniProt O14733): remaining binding read 100%.
For MAP2K2 (Homo sapiens, UniProt P36507): remaining binding read 90%.
For HIPK2 (Homo sapiens, UniProt Q9H2X6): remaining binding read 100%.
It gave 98% for remaining binding (PIK3CD (Homo sapiens, UniProt O00329)).
It gave 100% for remaining binding (FGFR4 (Homo sapiens, UniProt P22455)).
It gave 100% for remaining binding (SGK3 (Homo sapiens, UniProt Q96BR1)).
It gave 100% for remaining binding (KIT (Homo sapiens, UniProt P10721, D816V)).
The remaining binding was 98% (STK4 (Homo sapiens, UniProt Q13043)).
It gave 100% for remaining binding (KIT (Homo sapiens, UniProt P10721, L576P)).

A few entries again (block 3):
With O=C(N[C@@H]1CC[C@H]2Oc3ccccc3N[C@H]2[C@@H]1O)c1ccccn1 the remaining compound was 2.27%.
CC(C)(C)OC(=O)N1CCN(Cc2nc(-c3ccco3)n[nH]2)CC1 gave a remaining compound of 25.8%.
With CS(=O)(=O)N[C@@H]1[C@@H](NC(=O)C2=NNC(=O)CC2)[C@H]2CCO[C@H]21 the remaining compound was 98.5%.
COC(=O)c1sccc1NC(=O)Nc1c(C)nn(Cc2ccccc2C)c1C has a remaining compound of 1.34%.
CS(=O)(=O)N1CCC[C@H]1C(=O)N[C@H]1C[C@H](c2cc(=O)[nH]c(C3CC3)n2)C1 gave a remaining compound of greater than 99%.
COc1c(O)cc2c(c1O)C(=O)c1c(cc(C)c(O)c1OC)C2=O has a remaining compound of greater than 99%.
The remaining compound of Cc1ccc(S(=O)(=O)NC(=NCc2ccccc2)c2ccc(F)cc2)cc1 is reported as 1.65%.
CC(C)(C)OC(=O)NC1CCN(c2nnc(Cl)c3ccccc23)CC1 gave a remaining compound of 1.45%.
The remaining compound of CC(NCc1cnc2cnccn12)c1ccc2c(c1)OCO2 (stereo not shown) is reported as 31.6%.
